# Published values gathered from unrelated publications.
# A part holds a random share of what one study measured. Changes are numbered by the printed parent chain.

# Set 1 — method: protein-binding microarray; form: double-stranded DNA, one strand shown; sample: in vitro; tested at: not given; direction: higher = stronger binding
# Target: Transcriptional repressor CTCF (CTCF, Homo sapiens, UniProt P49711, residues 1-727, full length assumed)
# Setting: k-mer, scored over probes, only values ≥0.25
# Construct (chain): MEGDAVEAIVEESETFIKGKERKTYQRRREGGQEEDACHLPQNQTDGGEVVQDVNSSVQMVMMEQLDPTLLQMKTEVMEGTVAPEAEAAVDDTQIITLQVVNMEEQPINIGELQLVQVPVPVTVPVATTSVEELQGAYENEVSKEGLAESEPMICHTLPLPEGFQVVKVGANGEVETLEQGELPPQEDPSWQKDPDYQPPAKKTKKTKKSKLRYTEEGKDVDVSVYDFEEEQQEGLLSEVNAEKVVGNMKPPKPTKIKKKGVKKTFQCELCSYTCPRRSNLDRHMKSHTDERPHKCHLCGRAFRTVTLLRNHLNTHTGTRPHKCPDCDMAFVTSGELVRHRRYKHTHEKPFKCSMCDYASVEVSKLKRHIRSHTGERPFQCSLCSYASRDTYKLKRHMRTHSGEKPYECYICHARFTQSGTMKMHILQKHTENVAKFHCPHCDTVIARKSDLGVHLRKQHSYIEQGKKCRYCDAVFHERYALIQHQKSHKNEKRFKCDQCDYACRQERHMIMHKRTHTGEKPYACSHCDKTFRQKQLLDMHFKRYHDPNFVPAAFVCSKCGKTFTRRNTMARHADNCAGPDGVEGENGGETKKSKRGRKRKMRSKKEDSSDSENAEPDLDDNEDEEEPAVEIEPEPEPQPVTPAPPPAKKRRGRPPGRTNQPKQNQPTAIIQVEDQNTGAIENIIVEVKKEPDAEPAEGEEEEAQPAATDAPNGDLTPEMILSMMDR
Sequence,E-score
AGGCGGCG,0.255
AATTGCAC,0.265
CGATACTA,0.253
AGGCGCAA,0.272
TATATATA,0.41
ATAACACA,0.325
ATTCGCGC,0.343
AATACGAA,0.265
ATTGCACC,0.276

# Set 2 — method: RNA Bind-n-Seq; form: RNA; sample: in vitro; tested at: 200 nM; setting: whole 134-nt RNA, ends assumed; added: 150 mM LiCl; relative to: input library; direction: higher = stronger binding; library: 7-deaza-guanosine replaces G
# Target: Ras GTPase-activating protein-binding protein 1, full length (G3BP1, Homo sapiens, UniProt Q13283)
# Sequence of UniProt Q13283 (whole entry, looked up): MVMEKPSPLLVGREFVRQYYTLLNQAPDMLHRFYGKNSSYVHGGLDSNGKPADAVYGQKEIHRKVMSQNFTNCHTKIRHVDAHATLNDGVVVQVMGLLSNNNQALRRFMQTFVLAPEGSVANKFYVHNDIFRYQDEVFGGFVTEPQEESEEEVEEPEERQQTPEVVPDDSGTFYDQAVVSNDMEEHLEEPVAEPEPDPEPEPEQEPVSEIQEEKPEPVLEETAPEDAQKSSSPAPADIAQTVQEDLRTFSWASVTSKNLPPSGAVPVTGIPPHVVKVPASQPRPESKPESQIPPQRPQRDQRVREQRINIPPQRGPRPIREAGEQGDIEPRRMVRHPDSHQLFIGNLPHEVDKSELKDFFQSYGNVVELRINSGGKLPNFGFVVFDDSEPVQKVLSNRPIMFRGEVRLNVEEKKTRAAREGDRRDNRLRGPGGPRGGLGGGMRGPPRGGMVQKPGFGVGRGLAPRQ
# Constant ends, left off below: GGGAGUUCUACAGUCCGACGAUC … UGGAAUUCUCGGGUGUCAAGG
Sequence,log2 enrichment
UCCUGUGCUACACAUCGUAUGUACCGAAUCAAAUUUUUUUAAAUUUUUAAAUUUUUAAAAAAGUAUUAUGUUACGCCGUUCGGAUCUGCA,-2.4
UCCUGUGCUACACAUCGUAUGUACCGAAUCGGGUUUUUUGGGGUUUUUUGGGUUUUUUGGAAAGUAUUAUGUUACGCCGUUCGGAUCUGC,0.945
UUUGAAGGUGAUUUCUGGCCCAAUGUGUUAGAAGAGAGCAUUAAGGAACUAGAACAAGAAGAAGAGGAGAGGAAAAAGGAAGAGAGCACU,-1.95
GUCCUGUGCUACACAUCGUAUGUACCGAAUCGGGUUUGGGUUUUUGGGUUUUUUUGGGAAAGUAUUAUGUUACGCCGUUCGGAUCUGCAC,-0.423
AGUCCUGUGCUACACAUCGUAUGUACCGAAUCGGGGCCCCGGGCCCCGGGCCCCGGGGAAAGUAUUAUGUUACGCCGUUCGGAUCUGCAC,-1.87
UCAAGUCCUGUGCUACACAUCGUAUGUACCGAAUCGGGGAGGGGAGGGGUGGGGAAAGUAUUAUGUUACGCCGUUCGGAUCUGCACUUCC,0.278
UGGGAGGUGGAUUUUGUUUAUUUUUUUAGCUCAUUUCCAGGGGUGCGAAUUUUUUUUUAAUAUGUGUCAUGAAUAAAGUUGUUUUUGAAA,-0.906
UAACUUUAGAGGAGGAUCUGAUGGAUAUGGCAGUGGACGUGGAUUUGGGGAUGGCUAUAAUGGGUAUCGAGGAGGACCUGGAGGUGGCAA,-0.0985

# Set 3 — target: CCND2, cyclin fold, Cln2 fusion (human); method: yeast growth competition, sequencing; sample: yeast; setting: weak parent motif; relative to: not given; direction: higher = stronger binding
# Parent: RB1 docking peptide (human); PKPLKKLRFDIEG
Substitution,normalised enrichment score
L4W,0.126
K2D,-0.0733
I11V,0.726
E12Q,0.0423
P3T,0.161
P1Y,0.413
F9L,0.478
L4T,0.168
F9E,-0.241
R8H,0.176

# Set 4 — method: Sort-seq; measured: YFP reporter; sample: E. coli; setting: PhoQ-PhoP variant library; added: 10 µM Mg2+; relative to: high Mg2+ state; direction: higher = stronger signaling
# Molecule: PhoQ, residues 284 288 289 292 302 303 AEGLLW
target,fold induction
"PhoP, residues 12 14 15 18 19 LHTVL (Escherichia coli, UniProt P23836)",12.3
"PhoP, residues 12 14 15 18 19 NQCAL (Escherichia coli, UniProt P23836)",6.09
"PhoP, residues 12 14 15 18 19 TQAML (Escherichia coli, UniProt P23836)",9.92

# A few entries again (set 3):
Substitution,normalised enrichment score
K2D,-0.0733
P3T,0.161
L4T,0.168
I11V,0.726
R8H,0.176
